Published values collected from several papers.
Each numbered part is a random draw from the data of one study; scales do not carry over between parts.

Block 1 — technique: RNA Bind-n-Seq; molecule type: RNA; sample: in vitro; tested at: 365 nM; baseline: no-protein control; reading: higher = stronger binding
Target: RNA binding protein fox-1 homolog 2, RRM domain, GST-SBP tag (RBFOX2, Homo sapiens, UniProt O43251-10, residues 100-194)
Notes: natural RNA segment, single round, ends assumed
All sequences stand within: GGGAGUUCUACAGUCCGACGAUC … UGGAAUUCUCGGGUGCCAA
Residues (chain): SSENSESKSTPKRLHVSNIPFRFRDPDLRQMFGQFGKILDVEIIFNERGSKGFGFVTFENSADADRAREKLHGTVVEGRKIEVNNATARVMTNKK
Oligonucleotide	RBNS enrichment (R)
UGAAUUCAAGGGGCAGAUGAAUUUUUGGCAUUGUGUUUUUUCUUACUCAAAAUCUGUUUAUUGGGUUACUGCCCCCAUAAAAAGUAAACAUGACUUUUAAGUAUUUUUUU	0.739
UCCCUGGGUCCUGGGUCAGUUUGACCCUAGCCCUGGGGUGAGGCAAGCCCCCUCCUAUGAGGAUGAGCAAAAAUACUACUCUCUUCGCCCUGAGUUGCUUUCUGGAUCUG	0.214
UUCCAGAUGAGUGUUACAUAGAUUCUUUGAAUUUAGUAUAAAAGUACUGAGAAUUAAGUUUGUACUUCCAUAAGCUUGGAUUUUAAACACUGAUAGUAUCUCAUGAGUAA	0.401
GUUACCAGGAGAAAUGUGUGACACCUAUAUUAUAAUGAAAACAAUCUCAUUACUUAUAGUUUAUCUAUAUUAAACAAAUUUAAUUGCAUUUUAAAGCAUUCUUUGAUACU	0.916
GACCGAGAGUCUAUAGUGUGAACCUGGCCACCCGUCCGGCCAGGACGUGCCCUGUUGUAUCCUGACAAACCUUAAGCAGUUGAAACCAGUGUCGGCUAAGGCCUUCCUAG	0.27
UUCUUCCCUUUUAAAAUUGUGUAAACUGCAAAUUAUAAUAUAAUUUGAAUUUAUGAUUAUUUUCCAGAAGAAAUCUUGUAAACCUGUGGAUACUCAUUAAUUCUUUUGUU	0.644
GGGUGGGACUCUUAUUUUGGGUAGCCAUUUAUUGACUUCACCUUUUUGCCAAGGACGUUUGUCUCAAGGGAAAAGCAGUUUUCUGUGGGGCUUAUUAAAGGAAUGUUGGU	0.697
UUUGCAGGUGACCUGGUUACUUAGCUAGGAUUGGUGAUUUGUACUGCUUUAUGGUCAUUUGAAGGGCCCUUUAGUUUUUAUGAUAAUUUUUAAAAUAGGAACUUUUGAUA	0.42

Block 2 — technique: RNA Bind-n-Seq; molecule type: RNA; sample: in vitro; tested at: not given; baseline: input RNA pool; reading: higher = stronger binding
Target: RING finger protein unkempt homolog, zinc fingers 1-6, GST-SBP tag (UNK, Homo sapiens, UniProt Q9C0B0, residues 30-357)
Sequence of UniProt Q9C0B0 (30-357, looked up): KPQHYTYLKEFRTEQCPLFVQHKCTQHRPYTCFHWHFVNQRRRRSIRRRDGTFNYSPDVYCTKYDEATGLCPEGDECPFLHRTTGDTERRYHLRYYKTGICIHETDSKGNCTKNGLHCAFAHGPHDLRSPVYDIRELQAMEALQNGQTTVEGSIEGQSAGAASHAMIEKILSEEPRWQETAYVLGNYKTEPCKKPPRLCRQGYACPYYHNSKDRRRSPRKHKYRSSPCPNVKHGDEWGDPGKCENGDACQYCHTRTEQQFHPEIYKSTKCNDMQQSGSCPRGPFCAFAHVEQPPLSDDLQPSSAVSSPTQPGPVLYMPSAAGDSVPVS
Notes: RNA with constant flanks, human and mouse sites, ends assumed
All sequences stand within: GGGAGUUCUACAGUCCGACGAUC … CAACAGAGGAUUGAGCAUCA
Oligonucleotide	bound/input enrichment [ratio]
CCUCGGGAACGGGACUACUUAAAAACAGUCUUACACAGAAUUUAUGGCAAGUUUCUUGGUCUUAGAGCAUUUAUCCGAAAACAGAUUAACAAUAUUUUUCUAAGGUUUGUUUAUGAAACA	0.66
UCUAGAAUGUCUUCAACUAAAUCAAGUGGAAGUGAAUCAGACAGAUCAGAAAGGCCUGCAUUAGUACGCCAGUCUACUUUCAUCAAAGAAGCCCCAAGCCCAACCCUGAGGAGGAAACUG	0.124
AUAUUUCAUAUUGCAAAGAUGUUUACAAGUAUUUUAAUUUAAGUUCAGUGAACUUUUUUGUAGCUGGGUUAAAUCUUUUUAUUUUUAGUAUGGCCUUAUGGCAAAGAACACUGUAUUAUU	2.94
CAUCGCAUGCCCAGGGGCCACUACCUGGCAUUAUCGCAUGCUGGGAUCAUUGGGGGAGGGUAGUUUGAAAUUCACCACUGUCCUUUGUUUUGGAGAUUCUUAUUUUUUAAUAAGUAAUCC	0.165
AGUCCUGACUGCUUGGGACAUGCAGGACUUGUAUAUGAGUAUACAUUGGGAGAAGAGAAGUUUACCUUUAUUGAGAAAUGUAACAACCCUCGUUCUGUCACAUUAUUGAUCAAAGGACCA	0.326
UUGAUGAGCCUCCUGGGCCCCUCCAUCGAUUCCGUGGCUGUUCUGCGGGGCAUCCAGAAGGUGGCGAUGUUGGUCCAAGGGAACUGGGUGGUGAAGAGUGACAUCCUAUACCCCAAGGAC	0.148
AUGACUUCCCGCCUGACACCAUCAGUUACUCCGGUGUAUGCACCUGGGUUCCCUUCAGUUGUAGCUCCAAACUUCAGUUUAGGGGUAGAGCCAAAUUCAUUACAGACUCUGAAGCUAAUG	0.244
GAGCCUACUCUGGUUAAGAUGUUCUUUUCCUCAAAGGUGCCCUAGUGCCAUGAUUUAAAUAUUUUUAUUACCAUUUUGAAAUGGAGAAGCCAUUCUGCAUAUGCCUUUGAAUUCCUGCCC	2.23

Block 3 — technique: protein binding microarray; molecule type: double-stranded DNA, one strand shown; sample: in vitro; tested at: not given; baseline: not given; reading: higher = stronger binding
Target: Histone acetyltransferase KAT6A, winged helix 1, GST fusion (KAT6A, Homo sapiens, UniProt Q92794, residues 1-85)
Notes: 8-mer, flanks averaged, mean of 2 arrays, mostly near background
Residues (chain): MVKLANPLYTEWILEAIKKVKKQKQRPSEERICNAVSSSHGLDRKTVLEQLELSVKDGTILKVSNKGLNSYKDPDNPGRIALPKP
Oligonucleotide	E-score
GCCAACGC	0.194
CTAGCAGA	-0.24
CGCATCTC	0.217
ATACCCTA	-0.301
ATCTGAGG	-0.178
GAGAAGGC	-0.178
GCTTCCCC	0.112
AAGCAGGC	-0.0828
GAATGGTA	-0.24
ACCCGACA	0.152
ATCCAAAT	-0.166
CTTTCGAA	-0.168
AAACAAAG	-0.158
CACGTGCG	0.295
ATGTAATG	-0.00251
ATCTAGCC	0.022
AGGACTGA	-0.169

Block 4 — technique: universal PBM; molecule type: double-stranded DNA, one strand shown; sample: in vitro; tested at: not given; reading: higher = stronger binding
Target: Sal-like protein 4, full length isoform B (SALL4, Homo sapiens, UniProt Q9UJQ4-2, residues 1-616)
Notes: 8-mer, flanks averaged, mean of replicates
Construct (chain): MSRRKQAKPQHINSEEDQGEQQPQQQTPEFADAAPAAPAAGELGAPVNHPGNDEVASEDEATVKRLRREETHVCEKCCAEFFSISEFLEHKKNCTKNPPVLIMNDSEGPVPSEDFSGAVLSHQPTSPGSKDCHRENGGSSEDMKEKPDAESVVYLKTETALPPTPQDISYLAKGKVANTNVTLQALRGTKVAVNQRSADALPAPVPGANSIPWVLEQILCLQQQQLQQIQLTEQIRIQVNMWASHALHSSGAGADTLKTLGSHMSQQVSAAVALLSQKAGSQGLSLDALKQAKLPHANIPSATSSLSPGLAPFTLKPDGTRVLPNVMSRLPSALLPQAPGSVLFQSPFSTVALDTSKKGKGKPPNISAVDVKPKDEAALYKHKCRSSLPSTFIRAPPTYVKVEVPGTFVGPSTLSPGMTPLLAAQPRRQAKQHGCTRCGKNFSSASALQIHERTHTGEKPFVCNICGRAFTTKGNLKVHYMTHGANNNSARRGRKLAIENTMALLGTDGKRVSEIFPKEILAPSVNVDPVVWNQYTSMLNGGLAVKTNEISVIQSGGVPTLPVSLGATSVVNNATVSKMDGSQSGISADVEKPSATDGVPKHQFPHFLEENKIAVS
Oligonucleotide	E-score
TGCGTAAA	0.155
GGTCGATA	-0.0272
CACGTAGC	-0.184
AATGTCAG	0.0626
CGAAGCGA	-0.156
TACCTCTA	0.165
ATGTACCG	-0.0608
CAACATAG	0.13
ACTTTACT	0.155
CTAAGCGA	-0.304
CGTGAGGA	-0.141
TAACGTGA	0.178
AAATGCGT	0.206
CGTCCCCC	-0.303
ACGCCTCA	-0.0375
GGTCTTAA	-0.00709
CGGGCTAC	-0.27
CCCTTCCC	-0.22
CGCGATAG	-0.0766
ATCAGTTC	-0.104
AATAAGCG	0.154
TGCTTTAA	0.104
AAAAATGA	0.405
TAACTGCA	0.191
GCCATGCA	0.0322

Block 5 — technique: aptamer microarray, sandwich; molecule type: DNA with 2'F-ANA; sample: in vitro; tested at: 200 nM; with: Cy3 exosite-II aptamer, 400 nM; reading: higher = stronger binding; oligonucleotide: GGTTGGTGTGGTTGG
Target: Prothrombin, mature alpha-thrombin (F2, Homo sapiens, UniProt P00734)
Notes: whole 15-mer aptamer, many near background
Modification	mean fluorescence intensity
2'F-ANA at 1 2 6 7 8 12 13 15	265 a.u.
2'F-ANA at 4 5 6 8 10 11 12 13	85.7 a.u.
2'F-ANA at 2 4 5 6 7 10 13	45.4 a.u.
2'F-ANA at 1 2 3 4 11 13 14 15	64.8 a.u.
2'F-ANA at 1 3 10 12 14	59.9 a.u.
2'F-ANA at 1 3 4 7 8 11 12	372 a.u.
2'F-ANA at 1 2 3 4 5 8 9 10 13 14	44.4 a.u.
2'F-ANA at 1 3 4 9 11 15	168 a.u.
2'F-ANA at 1 2 5 8 9 10 11	47.2 a.u.
2'F-ANA at 6 7 8 9 10 13 14 15	161 a.u.
2'F-ANA at 1 2 7 9 12	346 a.u.
2'F-ANA at 1 3 4 5 6 7 9 10 13	48.1 a.u.
2'F-ANA at 3 4 6 11 12 14 15	334 a.u.
2'F-ANA at 5 6 8 12	203 a.u.
2'F-ANA at 1 2 4 5 6 7 8 12 14 15	59.4 a.u.
2'F-ANA at 1 5 6 10 12 13 14	41.4 a.u.
2'F-ANA at 2 6 7 8 9 10 12 13	137 a.u.
2'F-ANA at 1 2 3 7 11 12	420 a.u.
2'F-ANA at 2 7 10 11 13 14	82 a.u.
2'F-ANA at 2 4 6 7 8 9 10 11 13	67.3 a.u.
2'F-ANA at 1 5 6 8 9 10 11 12 13	47.7 a.u.
2'F-ANA at 1 3 4 7 10 14	49 a.u.
2'F-ANA at 7 8 9 10 11 15	162 a.u.
2'F-ANA at 1 2 9 11 13 14 15	54.1 a.u.
2'F-ANA at 4 5 9 11 13 15	58.3 a.u.

A few entries again (block 4):
Oligonucleotide	E-score
ACTTTACT	0.155
AAAAATGA	0.405
TAACTGCA	0.191
CGCGATAG	-0.0766
